Measurements from different studies.
Every numbered part comes from another study and shows a few of its results, in no order.

Set 1
Target: RNA binding protein fox-1 homolog 2, RRM domain, GST-SBP tag (RBFOX2, Homo sapiens, UniProt O43251-10, residues 100-194)
Technique: RNA Bind-n-Seq
Form: RNA
Sample: in vitro
Concentration: 365 nM
Setting: natural RNA segment, single round, ends assumed
Reference: no-protein control
Direction: higher = stronger binding
All sequences stand within: GGGAGUUCUACAGUCCGACGAUC … UGGAAUUCUCGGGUGCCAA
Residues (chain): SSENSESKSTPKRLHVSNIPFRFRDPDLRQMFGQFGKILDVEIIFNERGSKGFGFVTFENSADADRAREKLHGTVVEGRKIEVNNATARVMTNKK
Sequence	RBNS enrichment (R)
CACUAGAUUGCCUGUCCCGACUCAUUGAAGUGCUCCCCAGGGAGCCACUUCUGAUUUGCCAUGGUUGACAGCAUAGUGGAAGAUAGAUAUGACAGCGCUUUGUAAAGCAG	0.261
CCCCAUGUUAGUCCUAUGCCUUGAAAUAUCAUGCACCAUGACCCACAGCCAUCUGGUUAUGUCUUAUUUUUUUCCUAAAAGAUAAUGUUUAUUUUUAAAAAGGAAGGAAG	0.555
AGAGGUGGGGUCACCCAAGCUGAGUGCCAUCUUUUCCUGAAUGUCAGAUCUGCAGCCUCGGGGACUCCCAGGUACACAGCAUCCUACUGUAACCUUGGAAGCUGACCAAA	0.232
AUGAAGCAAAUUUUUUUUUCCACCAUGCUUUAUGUGAUUGUAUUUAAAUUGAUGUGUUAUUAUGUCAAAAGCCGGAUCUAUUAAAGAAACAAUUGGCCUUUCUGAGCUGA	0.532
CUGAAGAUGUGUUCAAUAUUUGUGGGAGGUUUGUCAUAAUCAGUUGGUGGGGUUCACUGCUCUGUUGUCCUGCUCUCUAACCACAGACAGGUAAGGAUUACCUUCUCUAG	0.586
UUGCUGUCACUUUGGCGAGGGAGUGGAUAUAGGGCAUGUCACAAAAGAACAAAAUAACCCGACCUUUAUUGCUGGGAGCUGGCUUCUGUCCCUUUCUUCCCCCCCCCACG	0.474
UUGUGUUUCACAUUGGGUAGUAUGCAUUCUGUCUGCACUGUCCCACCUUCUCAUCUCUACCUUUUAAGGGAUAUGGAAAGGUCUGGAGCUCUGUCUGACCCCACACUCUC	0.344
AUAACAAAGGGCAGCCCUCCACUUCUGGUAUAAUUGUGUAGCCCCUUUUCUUUGGGCUUGACACCUGUCUUGAAUAAGAGUGAUUAGAGCUGCAUAAUGUCCCUCUCUUG	1.09
ACCUCAUAAUUCUCACACAUGGCAUUUCUAAUGACAGGCAGGCCCUCUUCCAUGGUGCCGGCCAGAUUUGGGGACGGAGCACCAUUGUCCCUGUGGGGCUCAAUGUGGUG	0.221
UUCCUUCCCCUCAUUUAUAUCCUUAAUUCCUUGAGCUGCUGAGGUUUAGAACUGGUAGAGCCUACCUAAGGGUCUCCCCAUCUCCAGGAACUCUCAUGUAGGAUUUUUAA	0.433
UCCACAGCAAAUGAGAUGUAUGCCCAAAGACGGUAGAAUUAAAGAAGAGUAAAAUGGCUGUUGAAGCACUUUCUGUCCUGGUAUUUUGUUUUUGCUUUUGCCACACAGUA	2.58
UCCUAAUAGUCCUUCAGUGCAUUUUAGUCUGUCUCCAACUGGACACCAGUAGGUAGUGUCAAGCCAGAGAUUCGGGGCAGUAGAUAAAUGUUCAUUUUACUGAUGCACUU	0.457

Set 2
Target: RING finger protein unkempt homolog, zinc fingers 1-6, GST-SBP tag (UNK, Homo sapiens, UniProt Q9C0B0, residues 30-357)
Chain of UniProt Q9C0B0 (30-357, looked up): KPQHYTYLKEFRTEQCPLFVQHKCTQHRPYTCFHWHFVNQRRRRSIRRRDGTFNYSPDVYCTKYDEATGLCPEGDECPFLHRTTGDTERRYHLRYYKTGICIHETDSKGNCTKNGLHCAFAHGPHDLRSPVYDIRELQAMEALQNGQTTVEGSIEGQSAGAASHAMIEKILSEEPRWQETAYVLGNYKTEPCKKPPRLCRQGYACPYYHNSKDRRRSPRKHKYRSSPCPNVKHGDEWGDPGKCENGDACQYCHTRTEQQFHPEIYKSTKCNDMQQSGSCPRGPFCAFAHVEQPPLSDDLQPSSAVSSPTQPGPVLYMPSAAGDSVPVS
Technique: RNA Bind-n-Seq
Form: RNA
Sample: in vitro
Concentration: not given
Setting: RNA with constant flanks, ends assumed
Reference: input RNA pool
Direction: higher = stronger binding
All sequences stand within: GGGAGUUCUACAGUCCGACGAUC … CAACAGAGGAUUGAGCAUCA
Sequence	bound/input enrichment
UGUUACUCUGAUGGCACCGCAGUUCAUGAAAGCCACACAAAAAAUGCUUCAUUUUACGCCCGCUCUUCAACUCUCUACUACCAAAUAGAUAGUCACAUCCCAGGAACUCCUAGCCAGCUC	0.209 ratio
UUAGCUUUGUUAAAUGUAGCAACUCAGGGAGUUCAUUUAUGGGACUUGCAAGACAGAGUUUCCGUAAGAAAGUAUCAAGGUGUUACACAAGGGUUUUAUACAAUUCAUUCAUGUUUUGGA	0.456 ratio
UCUGGCCAUGGCCCCUCUGCCAAGCCUGUGUGCGAUGCCCUUGGUGCUUUAGUGCAAGAAGCCCCGGCUCAGAAGCACAGCAGCGCCAUCUUUCCGUUUCAGGGGUUGUGAUGAAGGCCA	0.156 ratio
UCAAGUAGAUGUUUUUCUGUUAUGUAAGCAAUAAUUUUUCCGUGUCUUAUUGAGUAUGGCCCGCGAUUAUUUAUUACAUGCUAGAUGGGUUCUUUGCAUGUGGGUUCCAUAUAGGUGCAG	0.593 ratio
ACAAUCGUUGACACAGUGGGAUUUGGAGACCAGAUUAAUAAAGAUGACAGCUAUAAGCCUACCGUGGAAUACAUUGACGCCCAGUUUGAGGCCUACUUGCAAGAAGAAUUGAAAAUUAAA	0.233 ratio
GGAGCGGGUCUGGGGCUCAGCCGGCGGCCCGAAGGUGCGGCGCCAUGAAGCUGUACAGCCUCCGUGUCCUUUACAAAGGCGAUCCGAAAGCGGUGCUGCUCAAGGCCGCGUACGACGUGU	0.11 ratio
UUGUACGCUUUAUCCAAAGAAAUAUAUGUGAUUAGCGCAGAGACCUUCACUGCCCUAUCAGUACCCGGUGUAAUGGUCUAUGGAAUUAAAAAAUAUGGUCCCUUUGUUGCAGACUUUGCU	0.704 ratio
ACCGUGCACAUUGCAUGUACUCCUCAGGCUGCCAAGGCAAUAAGCAACAAGGACCAGCACCGCAUAUCAUAUACUUUAUCUCGAGCCCAGACGGUGGUGGUUGAAUAUACUCAUGACAGC	0.208 ratio
AAGAAUUUCAAAGGUACUAUUGAAGAACUGGCUUCAAAUCAGUAUGUGAUUAAUGGAGAAGCCGCUAUUCUGGAUUCUACAACCAUUGAAAUCUCAGAGCUUCCCAUCCGAACGUGGACU	0.19 ratio
CUGCUUUUGGUGCUGCCUGUUGUGGAAGCAGUAGAAGCCGGUGAUGCAAUCGCCCUUUUGUCCGGUGUGGUUCUCAGCAUUACAGGCAUUUGUGCCUGCUUGGGGGUAUAUGCACGAAAA	0.141 ratio
AUUUUUUUUUUUUUUUUUUUAAGAAUAUCUGUAAUGGUACUGACUUUGCUUGCUUUGAAGCCGCUCUUUUUUUUUUUUUUUUUUUUUUUUUGCAGUAACUGUUUUUUAAGUCUCUCGUAG	1.74 ratio

Set 3
Target: UBE2V2 UBC core domain (UniProt Q15819)
Technique: yeast two-hybrid
Sample: yeast
Setting: mostly zero background
Reference: not given
Direction: higher = stronger interaction
B1: ANAPC11 RING domain (UniProt Q9NYG5); chain GICRMAFNGCCPDCKVPGDDCPLVWGQCSHCFHMHCILKWLHAQQVQQHCPMCRQEWKFKE
B2: RNF152 RING domain (UniProt Q8N8N0); chain ETLSQDSLLECQICFNYYSPRRRPKLLDCKHTCCSVCLQQMRTSQKDVRCPWCRGVTKLPPGFS
B3: TRIM37 RING domain (UniProt O94972); chain SVESIAEVFRCFICMEKLRDARLCPHCSKLCCFSCIRRWLTEQRAQCPHCRAPLQLRELVN
B4: RNF31 RING domain (UniProt Q96EP0); chain AFLRRLLAQECAVCGWALPHNRMQALTSCECTICPDCFRQHFTIALKEKHITDMVCPACGRPDLTDDTQLL
B5: TRIM31 RING domain (UniProt Q9BZY9); chain FVNKLQEEVICPICLDILQKPVTIDCGHNFCLKCITQIGETSCGFFKCPLCKTSVRKNAIRF
B6: RLIM RING domain (UniProt Q9NVW2); chain SFGENDALKTCSVCITEYTEGNKLRKLPCSHEYHVHCIDRWLSENSTCPICRRAVLASGNRE
B7: MYCBP2 RING domain (UniProt O75592); chain TSLKQDADDMCMICFTEALSAAPAIQLDCSHIFHLQCCRRVLENRWLGPRITFGFISCPICKNKINHIVLKD
B8: TRIM22 RING domain (UniProt Q8IYM9); chain VKVDIEKEVTCPICLELLTEPLSLDCGHSFCQACITAKIKESVIISRGESSCPVCQTRFQPGNLRP
B9: TRIM54 RING domain (UniProt Q9BYV2); chain SMDNLEKQLICPICLEMFSKPVVILPCQHNLCRKCANDVFQASNPLWQSRGSTTVSSGGRFRCPSCRHEVVLDRHGV
B10: TRIM60 RING domain (UniProt Q495X7); chain ALVNLQEESSCPICLEYLKDPVTINCGHNFCRSCLSVSWKDLDDTFPCPVCRFCFPYKSFRR
B11: RNF2 RING domain (UniProt Q99496); chain SPRSLHSELMCPICLDMLKNTMTTKECLHRFCADCIITALRSGNKECPTCRKKLVSKRSLR
Target sequence (chain): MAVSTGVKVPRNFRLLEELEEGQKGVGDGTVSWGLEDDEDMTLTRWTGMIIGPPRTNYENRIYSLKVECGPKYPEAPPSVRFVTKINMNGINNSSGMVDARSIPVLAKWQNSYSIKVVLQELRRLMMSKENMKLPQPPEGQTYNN
Sequence	lacZ reporter activity
B1 (ANAPC11 RING domain)	0
B2 (RNF152 RING domain)	0
B3 (TRIM37 RING domain)	0
B4 (RNF31 RING domain)	0
B5 (TRIM31 RING domain)	0
KPDKMEETLTCIICQDLLHDCVSLQPCMHTFCAACYSGWMERSSLCPTCRCPVERICKNH (CHFR RING domain (UniProt Q96EP1))	0
B6 (RLIM RING domain)	0
YPEEVDDDLICHICLQALLDPLDTPCGHTYCTLCLTNFLVEKDFCPMDRKPLVLQHCKK (LNX1 RING domain (UniProt Q8TBB1))	0
B7 (MYCBP2 RING domain)	0
B8 (TRIM22 RING domain)	0
B9 (TRIM54 RING domain)	0
AEADPLGRFTCPVCLEVYEKPVQVPCGHVFCSACLQECLKPKKPVCGVCRSALAPGVRAV (RNF114 RING domain (UniProt Q9Y508))	0
B10 (TRIM60 RING domain)	0
RYRQMEERITCPICIDSHIRLVFQCGHGACAPCGSALSACPICRQPIRDRIQIF (MIB2 RING domain (UniProt Q96AX9))	0
B11 (RNF2 RING domain)	0

Set 4
Target: TAR DNA-binding protein 43, full length, His tag (TARDBP, Homo sapiens, UniProt Q13148, residues 1-414)
Technique: RNA Bind-n-Seq
Form: RNA
Sample: in vitro
Concentration: 20 nM
Setting: 6-mer, flanks averaged, single round
With: 150 mM KCl
Reference: input library
Direction: higher = stronger binding
Sequence	6-mer enrichment (R)
UACUUA	0.575
AUUUAU	0.635
GCCGGC	1.45
CUCAAA	0.601
ACGUCC	0.622
CACGCG	1
CAUCCC	0.606
GAAGUG	1.61
CGGCAC	0.927
CUAUUU	0.632
UUAUUG	0.656
GUUCGU	0.732
AACGUG	0.875
UUGUGC	0.801
AGCGUC	0.732
CACGUA	0.663
ACCAAC	0.653
ACUAAC	0.616
GCGUUC	0.765
ACGAGG	1.91
UGAAAG	1
ACGUAU	0.675
GCCAGC	0.972
AGACGA	0.836
GGGCGU	3.49

For quick reference, copied from above (set 4):
Sequence	6-mer enrichment (R)
AACGUG	0.875
CAUCCC	0.606
CACGCG	1
UUGUGC	0.801
ACGUCC	0.622
GAAGUG	1.61
ACGAGG	1.91
AUUUAU	0.635
CGGCAC	0.927
GCCGGC	1.45
